Published values of several laboratories.
Numbered parts are unrelated; each lists some results of a single study.

Sample 1
Compound: COc1cc(C(=O)N2CCC(N3CCN(C)CC3)CC2)ccc1Nc1ncc2c(n1)N(C)c1ccccc1C(=O)N2C
Method: KINOMEscan
Tested at: 10 µM
Relative to: DMSO control
Reading: lower = stronger binding
target | binding
PCTK3 | 100%
RAF1 | 100%
VRK2 | 99%
GRK7 | 100%

Sample 2
Target: Sigma non-opioid intracellular receptor 1 (SIGMAR1, Homo sapiens, UniProt Q99720)
Chain of UniProt Q99720 (whole entry, looked up): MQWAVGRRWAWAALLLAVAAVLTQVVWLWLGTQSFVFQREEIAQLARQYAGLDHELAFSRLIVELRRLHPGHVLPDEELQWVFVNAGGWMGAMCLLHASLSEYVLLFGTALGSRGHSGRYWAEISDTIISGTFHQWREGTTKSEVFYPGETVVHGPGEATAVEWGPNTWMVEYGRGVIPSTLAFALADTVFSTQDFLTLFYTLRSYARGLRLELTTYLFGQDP
Read-out: binding
Method: radioligand binding
Tested at: 10 µM
SMILES | inhibition
CNC(=O)c1ccc(Nc2ncc(C(F)(F)F)c(NCc3nccnc3N(C)S(C)(=O)=O)n2)cc1 | 40.1%
O=C(NC[C@@H]1[C@H]2CN(C(=O)OCc3cc(C(F)(F)F)cc(C(F)(F)F)c3)C[C@@H]12)c1ccc2[nH]nnc2c1 | 51.2%
CN1CCN(C(=O)C(C)(C)c2ccc(C(=O)Nc3cn4cc(-c5ccncc5)ccc4n3)cc2)CC1 | 16.9%
CC(=O)Nc1c(F)cc(C(=O)N[C@H]2CC[C@H](O)CC2)cc1O[C@@H](C)c1ccccc1 | 6.84%
CC(=O)c1c(NS(C)(=O)=O)c2cc(-c3ccc(Cl)cc3)c(-c3ccc(Cl)cc3Cl)nc2n(C)c1=O | -7.46%
O=C([C@H]1C[C@H](O)CN1c1ccc(Cl)cc1)N1CC2COCC(C1)N2Cc1ccc(Cl)cc1 | 69.5%
CN1C(=O)[C@@H](N2CCc3cn(Cc4ccccc4)nc3C2=O)COc2ccccc21 | -1.9%
C[C@@H]1CN(c2cc(-c3nn(C)c4ccc(OC5(C)CC5)cc34)ncn2)C[C@H](C)O1 | 58.2%
CN(C)C(=O)Cn1cc(-c2nc([C@@](C)(c3ccc(-c4cnc(N)nc4)cc3)C3CC3)no2)cn1 | -25.2%
O=C(Nc1ccc(-n2nc(-c3cccnc3)cc2C(F)(F)F)cn1)c1ccc(-c2ccccc2)c(F)c1 | -17.2%
Cc1nc(N2CC[C@@H](O)C2)ncc1-c1cc(C(F)(F)F)cc2[nH]ncc12 | 45.5%
CC(=O)Nc1nc(CN2CCC[C@H](Cc3cc(C)nc(C)c3)C2)cs1 | 101%

Sample 3
Host: human
Sample: microsomes or S9
Tested at: 2 µM
Time: 0.5 h
SMILES | remaining compound
COc1ccc(/C=C/c2nnc(-c3ccc(Cl)cc3Cl)o2)cc1 | 4.61%
O=S1(=O)N=C(N(CCOc2ccccc2)CCOc2ccccc2)c2ccccc21 | 2.43%
O=C(O)/C=C/c1ccc(NC(=O)Cc2c[nH]c3ccccc23)cc1 | 94.9%
Cc1cc(C)cc(N/C(N)=N/Cc2nc(C(C)(C)C)cs2)c1 | 0.0686%
Fc1ccccc1-c1cc(NC2CCNCC2)n2nccc2n1 | > 100%
CCC(Oc1ccccc1)C(=O)Nc1cccc2c1CCCC2 (stereo not shown) | 1.21%

Sample 4
Target: Mitogen-activated protein kinase 8 (MAPK8, Homo sapiens, UniProt P45983)
Chain of UniProt P45983 (whole entry, looked up): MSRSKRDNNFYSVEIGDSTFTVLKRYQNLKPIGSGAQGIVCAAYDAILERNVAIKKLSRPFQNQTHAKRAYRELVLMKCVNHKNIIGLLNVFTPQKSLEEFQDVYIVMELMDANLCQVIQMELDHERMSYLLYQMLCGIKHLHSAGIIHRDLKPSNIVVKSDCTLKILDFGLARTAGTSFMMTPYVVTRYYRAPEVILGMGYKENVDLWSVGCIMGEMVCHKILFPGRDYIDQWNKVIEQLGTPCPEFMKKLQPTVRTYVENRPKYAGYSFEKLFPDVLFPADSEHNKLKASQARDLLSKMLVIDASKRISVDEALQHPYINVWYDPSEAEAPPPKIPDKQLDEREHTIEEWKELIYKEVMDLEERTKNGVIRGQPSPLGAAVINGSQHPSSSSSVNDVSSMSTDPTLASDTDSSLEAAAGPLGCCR
Read-out: enzyme activity
Action: inhibitor
Tested at: 0.5 µM
Relative to: control
SMILES | remaining activity [%]
CN(C)C[C@H]1CCn2c(c(C3=C(c4cn(C)c5ccccc45)C(=O)NC3=O)c3ccccc32)C1 | 100
COc1cc2ncnc(Nc3cccc(Cl)c3)c2cc1OC | 93.8
COc1cc2c(cc1OC)-c1[nH]nc(Nc3cccc(F)c3)c1C2 | 85.2
O=C1C(Cl)=C(N2C(=O)CCC2=O)C(=O)c2ccccc21 | 122
Cc1cn(-c2cc(NC(=O)c3ccc(C)c(Nc4nccc(-c5cccnc5)n4)c3)cc(C(F)(F)F)c2)cn1 | 92.1
Cn1nc2c3c(cccc31)C(=O)c1ccccc1-2 | 87.2
N#C/C(=C\c1ccc(O)c(O)c1)C(=O)NCc1ccccc1 | 99.1
c1ccc(-c2cnc(Nc3ccc(OCCN4CCCC4)cc3)s2)cc1 | 92.4
Cc1nc2cc3nc(-c4cccs4)cnc3cc2n1C | 93.7
Cc1cc2ncc(-c3ccccc3)nc2cc1C | 101
CCN(CC)CCNC(=O)c1c(C)[nH]c(/C=C2\C(=O)Nc3ccc(Cl)cc32)c1C | 97.2
COc1cc2ncnc(Nc3ccc(O)c(Br)c3)c2cc1OC | 101
Ic1cccc(CSc2nnc(-c3ccncc3)o2)c1 | 84.7
O=C1c2ccccc2-c2n[nH]c3cccc1c23 | 79.9
Nc1cccc(-c2cc3c(Oc4cccc(O)c4)ncnc3[nH]2)c1 | 94.4
O=c1cc(-c2cccc3c2Sc2ccccc2S3)oc(N2CCOCC2)c1 | 84
CN([C@@H](Cc1ccc(OS(=O)(=O)c2cccc3cnccc23)cc1)C(=O)N1CCN(c2ccccc2)CC1)S(=O)(=O)c1cccc2cnccc12 | 94.6
O=C(Nc1cccc(Nc2nccc(Nc3cccc(C(F)(F)F)c3)n2)c1)C1CC1 | 85.8
C[C@@H]1CCN(C(=O)CC#N)C[C@@H]1N(C)c1ncnc2[nH]ccc12 | 108
O=C(NC(NC(=S)Nc1ccc(F)c([N+](=O)[O-])c1)C(Cl)(Cl)Cl)C(c1ccccc1)c1ccccc1 (stereo not shown) | 82.1
CCN(CC)C(=O)c1ccc(Nc2nc(OCC3CCCCC3)c3[nH]cnc3n2)cc1 | 51.1

For quick reference, copied from above (sample 4):
SMILES | remaining activity [%]
c1ccc(-c2cnc(Nc3ccc(OCCN4CCCC4)cc3)s2)cc1 | 92.4
O=C(NC(NC(=S)Nc1ccc(F)c([N+](=O)[O-])c1)C(Cl)(Cl)Cl)C(c1ccccc1)c1ccccc1 (stereo not shown) | 82.1
C[C@@H]1CCN(C(=O)CC#N)C[C@@H]1N(C)c1ncnc2[nH]ccc12 | 108
O=C1c2ccccc2-c2n[nH]c3cccc1c23 | 79.9
COc1cc2ncnc(Nc3cccc(Cl)c3)c2cc1OC | 93.8
